# Results from different studies.
# Numbered parts are unrelated; each lists some results of a single study. Substitutions count along the parent as printed.

# Series 1
# Target: Histone acetyltransferase KAT6A, winged helix 2, GST fusion (KAT6A, Homo sapiens, UniProt Q92794, residues 85-181)
# Method: protein binding microarray
# Form: double-stranded DNA, one strand shown
# Sample: in vitro
# Concentration: not given
# Notes: 8-mer, flanks averaged, mean of 2 arrays, mostly near background
# Reference: not given
# Reading: higher = stronger binding
# Residues (chain): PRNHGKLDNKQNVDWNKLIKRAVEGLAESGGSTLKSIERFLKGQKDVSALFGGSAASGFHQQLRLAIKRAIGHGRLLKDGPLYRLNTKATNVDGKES
Sequence,E-score
ACTTTCCC,-0.0695
GAGACAAC,0.0125
CATCGGTA,-0.0744
CAAGCGAC,0.0124
ACGGCTAA,0.0908
GTTACCCA,-0.034
ACAGAGCT,0.0374
CACCGTCC,0.0601
CCCAACAA,0.0139
CTGTCAAC,-0.0337
AAATCATC,-0.0273
CTGTATCA,-0.0117
AGCCCTCG,-0.0532
CCTGGCTC,0.143
GGGAAAAA,-0.0561
AGGGCGTC,0.176
AAATTGTA,0.00853
CCGAGTCG,0.109
AGATTGAC,-0.0561
ATACTGCG,-0.143
ACCACCCC,-0.118
GTTAGGGA,0.0189
AAAACGAT,-0.116
ACAGTATG,-0.182

# Series 2
# Target: FOSB, bZIP domain (human)
# Method: DHFR protein complementation
# Sample: yeast
# Notes: single substitutions, most at no-binding floor
# Reference: wild-type JUN-FOS pair
# Reading: higher = stronger binding
# Parent: JUN, bZIP domain (human); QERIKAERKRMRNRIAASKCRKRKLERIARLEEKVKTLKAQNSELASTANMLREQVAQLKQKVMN; partner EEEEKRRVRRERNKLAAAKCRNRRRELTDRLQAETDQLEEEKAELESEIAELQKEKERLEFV
Variant,binding fitness
K36M,0.0365 natural log
E54W,-0.422 natural log
A46I,-0.126 natural log
S43K,0.144 natural log
A49G,-0.907 natural log
L45F,-0.976 natural log
E33W,-0.275 natural log
M51L,-0.00048 natural log
T48A,-0.0977 natural log
L59S,-1.15 natural log
S43C,-0.0695 natural log
T48W,-0.258 natural log
E44F,-0.137 natural log
K34W,-0.158 natural log
K36V,-0.121 natural log
R53A,-0.414 natural log
V35C,-0.347 natural log

# Series 3
# Target: RNA binding protein fox-1 homolog 2, RRM domain, GST-SBP tag (RBFOX2, Homo sapiens, UniProt O43251-10, residues 100-194)
# Method: RNA Bind-n-Seq
# Form: RNA
# Sample: in vitro
# Concentration: 365 nM
# Notes: natural RNA segment, single round, ends assumed
# Reference: no-protein control
# Reading: higher = stronger binding
# Constant ends, left off below: GGGAGUUCUACAGUCCGACGAUC … UGGAAUUCUCGGGUGCCAA
# Target sequence (chain): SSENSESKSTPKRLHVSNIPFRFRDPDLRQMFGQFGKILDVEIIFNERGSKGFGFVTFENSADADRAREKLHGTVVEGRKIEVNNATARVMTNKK
Sequence,RBNS enrichment (R)
GUGUUUGACAAUGUUGCAGUUUAAAUGAUAAUGUUUAAAUCAAUUGGUACUUGCCUGUAGUGUUAAACCCUAUUUGUGCCAUUCUCAAGUCCUUUGAUGUGAAUUUUCAG,0.366
AAAAAAAAGCUGUAACCUUAUCAUUUCUGAGUAGACCAUUAAGAGAAAUGCACACCUGUCAGCCCAGGACCAGCUUUGGUGGCUAAAGGGAAUAUUUUAACUCGCAAGGU,0.582
GUUUGCUGUUGCACACUGAUUGCUAAGGGUGCAUCCAUUCUAAGCAUUGAAUACUCCAUCCCCUUCCCGCCCAGUGAAUGGAAUGAGAAAAGCCUUCUUCCUUUGCUUCA,1.39
CUUCUAGCUCUCCAGGUGAGCAGAAAGACCAAAUAUCCAAAUAAAAGCCUGAAAGCCAUUGGUGAUCCAGGGGCACCUUCUCUUCAGCUUGACUGGGCGUCUUCCGCUGC,0.381
AAAUAAUACUUUAGGGUGGCACUGACCGCUAUACCAGCAGCCCCAUGAGCACUCAAAGUGCCUUUCGAACCAUAAUGCCAUCUUGAAUUUGGGUCCUCUCGGCCCCAACU,0.217
ACAUUAACUGCUCAAAUACAAGGAAGUGGCCCAAUGAACAUGGUUGUGGGAGGGGAAAGGAGAAACAAAGCUAGUCAGAUGUGAAUUGUAUCUGUUGUAAUAAACAUGUU,1.81
UGAAUGAGGGAAAGUCUGAUGCUAAGAUACUGCCUGCACUGGAAUGUCAAACACUAUAUAACAAGCUGUGGUUUUUAAAAGCUAUUGAAUAAUGUUUACAUUGGUCCCUG,0.749
GAGUUGGGCAGAAGUCAGACAUUACGGUGAGAUUCAGGGCUCAGAGUGGGGGUGCUGUACUCACUGGCUUUGUGACCUGGCCUGGGGGGGGUUCCAGGUAAGAGAAACAG,0.806

# Series 4
# Target: CCNE2, cyclin fold, Cln2 fusion (human)
# Method: yeast growth competition, sequencing
# Sample: yeast
# Notes: weak parent motif
# Reference: not given
# Reading: higher = stronger binding
# Parent: CABLES2 docking peptide (human); ICAKRSLCAAFSV
Variant,normalised enrichment score
ICAKRALCAAFSV [S6A],0.867
ICAKRSLAAAFSV [C8A],0.499
ICAKASLCAAFSV [R5A],0.139
ICAKRSACAAFSV [L7A],-0.0193
ICAKRSLCAAFAV [S12A],0.658

# Series 5
# Target: ABI1, truncated, D143A, DHFR fusion (Arabidopsis thaliana)
# Method: DHFR PCA, deep sequencing
# Sample: yeast
# Notes: methotrexate growth selection, single substitutions
# Together with: (+)-ABA 58 µM
# Reference: wild-type fitted maximum
# Reading: higher = stronger binding
# Parent: PYL1, truncated, DHFR fusion (Arabidopsis thaliana); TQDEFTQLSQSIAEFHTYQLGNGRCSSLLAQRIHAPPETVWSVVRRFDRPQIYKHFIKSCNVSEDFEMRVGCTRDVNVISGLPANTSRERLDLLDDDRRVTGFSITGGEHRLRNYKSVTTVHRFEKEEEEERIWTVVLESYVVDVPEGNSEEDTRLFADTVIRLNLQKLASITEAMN
Variant,relative binding score
D75V,91.3%
V143L,46.6%
L8N,58.4%
D95H,39.1%
I79A,85.9%
R99C,76.3%
E151C,81.3%
V44G,-12.1%
S104D,-1.02%
T6G,92.5%
Q7A,94.9%
R49Y,67.4%
S63M,77.1%
I57E,-12.3%

# Series 6
# Target: Transcriptional repressor CTCF (CTCF, Homo sapiens, UniProt P49711, residues 1-727, full length assumed)
# Chain of UniProt P49711 (whole entry, looked up): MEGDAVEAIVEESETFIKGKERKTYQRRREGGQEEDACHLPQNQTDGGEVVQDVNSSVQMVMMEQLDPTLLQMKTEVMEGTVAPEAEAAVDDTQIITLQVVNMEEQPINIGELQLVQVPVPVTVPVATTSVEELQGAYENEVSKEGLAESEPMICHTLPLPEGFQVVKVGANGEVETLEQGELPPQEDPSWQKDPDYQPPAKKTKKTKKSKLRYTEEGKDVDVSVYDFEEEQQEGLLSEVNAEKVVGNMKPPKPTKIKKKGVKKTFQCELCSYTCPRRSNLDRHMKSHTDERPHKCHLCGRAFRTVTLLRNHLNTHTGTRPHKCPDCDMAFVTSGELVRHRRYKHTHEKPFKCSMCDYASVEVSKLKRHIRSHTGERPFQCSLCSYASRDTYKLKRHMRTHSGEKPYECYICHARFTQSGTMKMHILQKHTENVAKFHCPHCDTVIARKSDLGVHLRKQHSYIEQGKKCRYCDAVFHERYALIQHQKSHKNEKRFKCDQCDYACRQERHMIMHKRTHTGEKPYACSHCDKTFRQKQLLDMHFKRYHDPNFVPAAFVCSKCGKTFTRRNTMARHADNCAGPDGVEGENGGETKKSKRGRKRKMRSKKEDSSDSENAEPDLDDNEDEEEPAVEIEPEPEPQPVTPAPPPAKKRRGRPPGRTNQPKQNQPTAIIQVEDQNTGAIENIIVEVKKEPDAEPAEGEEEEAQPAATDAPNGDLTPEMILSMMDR
# Method: protein-binding microarray
# Form: double-stranded DNA, one strand shown
# Sample: in vitro
# Concentration: not given
# Notes: k-mer, scored over probes, only values ≥0.25
# Reading: higher = stronger binding
Sequence,E-score
CACATATA,0.378
ATGCTAAT,0.253
GTATTACA,0.342
AATAAACA,0.308
AAATATAC,0.284
ATATATAA,0.424
CGACAAAA,0.271
CGATAGCG,0.265
GGAATTTA,0.322
ACACAACA,0.255
ATATACGA,0.269
ACGCGCAT,0.342
CGCCACCC,0.28
CAATGCGC,0.412
AGTATTAA,0.275
ATAATAAC,0.351
CAATTACG,0.272
GGTGCGCA,0.341
GGAAATTA,0.272
TAAATACA,0.28
TTATAAAA,0.282

# A few entries again (series 1):
Sequence,E-score
AGGGCGTC,0.176
CTGTATCA,-0.0117
CCGAGTCG,0.109
CACCGTCC,0.0601
GAGACAAC,0.0125
GGGAAAAA,-0.0561
AAATTGTA,0.00853
GTTACCCA,-0.034
ACTTTCCC,-0.0695
AAAACGAT,-0.116
ACAGTATG,-0.182
CCTGGCTC,0.143
AAATCATC,-0.0273
CTGTCAAC,-0.0337
